Published values of several laboratories.
Each numbered part is a random draw from the data of one study; scales do not carry over between parts.
Sequence of UniProt Q6ZWH5 (whole entry, looked up): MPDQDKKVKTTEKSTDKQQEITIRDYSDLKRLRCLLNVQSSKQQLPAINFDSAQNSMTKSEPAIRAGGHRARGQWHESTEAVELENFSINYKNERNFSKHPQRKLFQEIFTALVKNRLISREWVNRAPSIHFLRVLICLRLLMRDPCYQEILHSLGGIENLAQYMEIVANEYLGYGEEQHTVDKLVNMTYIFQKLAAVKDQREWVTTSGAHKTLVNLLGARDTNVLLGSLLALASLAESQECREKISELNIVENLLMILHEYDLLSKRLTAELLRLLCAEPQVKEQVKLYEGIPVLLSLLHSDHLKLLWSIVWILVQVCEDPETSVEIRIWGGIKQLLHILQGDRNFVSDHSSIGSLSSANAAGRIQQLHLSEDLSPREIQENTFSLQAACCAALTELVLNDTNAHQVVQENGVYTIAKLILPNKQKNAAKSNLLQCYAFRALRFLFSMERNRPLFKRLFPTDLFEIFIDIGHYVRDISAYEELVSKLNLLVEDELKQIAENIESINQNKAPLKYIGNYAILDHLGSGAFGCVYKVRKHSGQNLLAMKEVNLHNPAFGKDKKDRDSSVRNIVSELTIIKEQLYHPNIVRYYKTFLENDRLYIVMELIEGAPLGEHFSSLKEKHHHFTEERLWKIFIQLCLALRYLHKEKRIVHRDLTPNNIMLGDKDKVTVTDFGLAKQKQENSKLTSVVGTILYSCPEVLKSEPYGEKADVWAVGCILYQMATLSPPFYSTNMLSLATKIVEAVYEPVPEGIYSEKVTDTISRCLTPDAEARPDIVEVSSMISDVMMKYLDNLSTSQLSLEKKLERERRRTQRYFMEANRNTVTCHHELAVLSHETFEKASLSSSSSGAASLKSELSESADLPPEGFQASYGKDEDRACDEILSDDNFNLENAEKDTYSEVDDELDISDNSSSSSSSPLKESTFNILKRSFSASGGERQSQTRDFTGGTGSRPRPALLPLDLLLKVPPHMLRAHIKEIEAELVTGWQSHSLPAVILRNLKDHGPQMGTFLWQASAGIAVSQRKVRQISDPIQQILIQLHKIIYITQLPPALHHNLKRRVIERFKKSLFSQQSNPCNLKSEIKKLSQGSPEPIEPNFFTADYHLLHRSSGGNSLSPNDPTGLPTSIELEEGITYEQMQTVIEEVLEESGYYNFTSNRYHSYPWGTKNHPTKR
Sequence of UniProt P31749 (whole entry, looked up): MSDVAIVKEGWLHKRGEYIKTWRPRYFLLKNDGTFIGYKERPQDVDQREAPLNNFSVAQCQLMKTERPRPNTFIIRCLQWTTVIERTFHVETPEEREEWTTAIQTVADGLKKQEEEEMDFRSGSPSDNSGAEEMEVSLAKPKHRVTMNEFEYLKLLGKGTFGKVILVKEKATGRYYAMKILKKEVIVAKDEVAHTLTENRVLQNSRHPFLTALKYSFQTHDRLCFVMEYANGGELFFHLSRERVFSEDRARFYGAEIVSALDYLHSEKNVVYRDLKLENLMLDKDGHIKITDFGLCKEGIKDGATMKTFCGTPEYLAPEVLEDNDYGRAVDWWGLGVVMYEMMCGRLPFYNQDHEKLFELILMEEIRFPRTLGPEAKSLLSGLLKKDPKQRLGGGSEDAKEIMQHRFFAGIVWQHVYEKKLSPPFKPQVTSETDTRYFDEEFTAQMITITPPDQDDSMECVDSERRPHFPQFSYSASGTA
Sequence of UniProt Q16763 (whole entry, looked up): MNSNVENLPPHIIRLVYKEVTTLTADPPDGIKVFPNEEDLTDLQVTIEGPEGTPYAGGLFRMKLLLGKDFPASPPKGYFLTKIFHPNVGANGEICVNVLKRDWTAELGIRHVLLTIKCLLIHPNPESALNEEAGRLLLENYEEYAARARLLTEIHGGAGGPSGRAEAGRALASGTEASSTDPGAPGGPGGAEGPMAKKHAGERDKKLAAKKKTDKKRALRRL
Sequence of UniProt Q7L7X3 (whole entry, looked up): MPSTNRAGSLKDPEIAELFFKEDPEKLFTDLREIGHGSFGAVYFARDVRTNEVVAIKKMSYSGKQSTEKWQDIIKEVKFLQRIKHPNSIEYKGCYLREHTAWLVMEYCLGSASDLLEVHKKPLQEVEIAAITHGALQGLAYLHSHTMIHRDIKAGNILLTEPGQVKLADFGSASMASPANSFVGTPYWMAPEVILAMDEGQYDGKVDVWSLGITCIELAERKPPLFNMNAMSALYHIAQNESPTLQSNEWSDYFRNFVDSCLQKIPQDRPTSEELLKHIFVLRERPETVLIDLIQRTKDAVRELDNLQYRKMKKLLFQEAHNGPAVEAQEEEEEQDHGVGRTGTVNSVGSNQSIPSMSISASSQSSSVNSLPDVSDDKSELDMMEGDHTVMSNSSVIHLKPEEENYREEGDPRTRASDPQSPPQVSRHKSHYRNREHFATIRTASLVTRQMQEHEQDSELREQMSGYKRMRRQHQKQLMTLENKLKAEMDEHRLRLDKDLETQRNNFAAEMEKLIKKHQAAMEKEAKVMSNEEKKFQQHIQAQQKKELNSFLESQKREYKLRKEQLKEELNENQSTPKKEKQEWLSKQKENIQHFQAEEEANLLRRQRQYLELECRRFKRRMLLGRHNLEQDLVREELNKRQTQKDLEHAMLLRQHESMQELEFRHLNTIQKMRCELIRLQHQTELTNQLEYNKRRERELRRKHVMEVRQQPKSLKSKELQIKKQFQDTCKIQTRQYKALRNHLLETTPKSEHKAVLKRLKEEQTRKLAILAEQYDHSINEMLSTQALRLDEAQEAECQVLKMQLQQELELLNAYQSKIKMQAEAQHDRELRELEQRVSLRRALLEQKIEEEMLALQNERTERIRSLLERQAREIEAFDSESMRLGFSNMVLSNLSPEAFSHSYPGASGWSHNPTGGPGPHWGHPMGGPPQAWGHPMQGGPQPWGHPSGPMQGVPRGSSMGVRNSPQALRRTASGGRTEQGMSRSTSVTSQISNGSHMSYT
Sequence of UniProt Q16620 (whole entry, looked up): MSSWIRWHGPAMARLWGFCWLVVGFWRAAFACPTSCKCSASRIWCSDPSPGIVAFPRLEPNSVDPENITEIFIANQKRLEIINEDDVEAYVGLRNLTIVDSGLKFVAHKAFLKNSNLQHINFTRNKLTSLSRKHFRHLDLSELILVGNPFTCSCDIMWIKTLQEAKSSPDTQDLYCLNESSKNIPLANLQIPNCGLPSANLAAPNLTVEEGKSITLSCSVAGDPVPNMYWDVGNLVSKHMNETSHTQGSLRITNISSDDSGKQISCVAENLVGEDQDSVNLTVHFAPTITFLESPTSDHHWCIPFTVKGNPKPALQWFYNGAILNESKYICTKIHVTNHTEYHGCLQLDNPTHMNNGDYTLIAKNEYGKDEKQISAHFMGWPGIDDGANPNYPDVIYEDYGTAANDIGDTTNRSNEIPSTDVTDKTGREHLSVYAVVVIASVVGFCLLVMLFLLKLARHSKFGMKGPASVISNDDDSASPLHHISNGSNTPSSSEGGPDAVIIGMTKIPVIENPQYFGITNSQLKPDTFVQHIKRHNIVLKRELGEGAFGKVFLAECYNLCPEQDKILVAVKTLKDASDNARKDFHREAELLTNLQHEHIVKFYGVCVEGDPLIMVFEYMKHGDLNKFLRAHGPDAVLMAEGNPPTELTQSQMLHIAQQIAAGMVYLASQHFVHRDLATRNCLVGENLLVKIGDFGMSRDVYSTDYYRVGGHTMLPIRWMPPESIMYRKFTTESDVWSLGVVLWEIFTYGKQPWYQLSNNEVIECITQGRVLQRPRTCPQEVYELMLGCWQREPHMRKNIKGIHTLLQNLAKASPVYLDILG
Sequence of UniProt Q7Z7E8 (whole entry, looked up): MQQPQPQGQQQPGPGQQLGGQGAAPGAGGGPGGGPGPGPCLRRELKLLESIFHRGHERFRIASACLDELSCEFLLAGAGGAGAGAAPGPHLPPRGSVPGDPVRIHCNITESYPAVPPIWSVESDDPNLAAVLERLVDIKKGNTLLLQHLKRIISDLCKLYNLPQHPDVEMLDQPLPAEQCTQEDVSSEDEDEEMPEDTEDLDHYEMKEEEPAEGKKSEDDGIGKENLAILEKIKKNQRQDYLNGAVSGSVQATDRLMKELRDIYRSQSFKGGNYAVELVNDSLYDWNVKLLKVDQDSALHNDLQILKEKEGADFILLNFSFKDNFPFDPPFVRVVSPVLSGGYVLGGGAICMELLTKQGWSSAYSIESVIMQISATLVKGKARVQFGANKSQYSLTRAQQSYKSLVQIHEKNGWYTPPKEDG
Sequence of UniProt Q9H3Y6 (whole entry, looked up): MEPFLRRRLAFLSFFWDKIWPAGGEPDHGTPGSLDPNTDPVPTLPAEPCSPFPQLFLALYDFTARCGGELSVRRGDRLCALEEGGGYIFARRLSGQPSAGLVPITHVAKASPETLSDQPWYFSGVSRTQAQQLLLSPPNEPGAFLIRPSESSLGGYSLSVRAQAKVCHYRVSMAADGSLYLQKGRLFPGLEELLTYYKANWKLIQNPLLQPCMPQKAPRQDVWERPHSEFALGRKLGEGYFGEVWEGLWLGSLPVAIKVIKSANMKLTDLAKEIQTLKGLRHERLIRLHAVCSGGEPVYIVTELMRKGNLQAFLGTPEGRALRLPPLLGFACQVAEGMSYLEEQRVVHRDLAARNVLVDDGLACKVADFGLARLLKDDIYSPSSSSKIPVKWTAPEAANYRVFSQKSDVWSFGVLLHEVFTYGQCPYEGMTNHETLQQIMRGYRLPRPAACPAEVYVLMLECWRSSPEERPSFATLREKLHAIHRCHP
Sequence of UniProt Q8N2K1 (whole entry, looked up): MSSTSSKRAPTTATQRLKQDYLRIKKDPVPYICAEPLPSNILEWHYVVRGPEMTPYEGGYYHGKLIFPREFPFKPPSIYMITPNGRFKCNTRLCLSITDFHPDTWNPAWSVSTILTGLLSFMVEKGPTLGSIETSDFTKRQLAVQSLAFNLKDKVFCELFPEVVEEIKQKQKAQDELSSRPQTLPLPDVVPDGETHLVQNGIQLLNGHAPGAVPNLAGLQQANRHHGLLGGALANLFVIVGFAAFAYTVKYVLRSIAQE
Sequence of UniProt P68036 (whole entry, looked up): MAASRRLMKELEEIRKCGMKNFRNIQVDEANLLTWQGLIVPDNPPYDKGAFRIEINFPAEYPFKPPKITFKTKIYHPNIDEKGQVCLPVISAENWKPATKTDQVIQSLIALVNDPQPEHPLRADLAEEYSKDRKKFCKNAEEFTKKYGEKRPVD

Block 1
SMILES: Cc1cc(NC(=O)c2cccc(S(F)(F)(F)(F)F)c2)cc(-n2ccn3nc(-c4cccnc4)cc23)c1
Read-out: cell-free assay
Method: competition with immobilised ligand
Concentration: 1 µM
Fibroblast growth factor receptor 4 (FGFR4, Homo sapiens, UniProt P22455) — remaining binding: 100%.
For Epidermal growth factor receptor (EGFR, Homo sapiens, UniProt P00533, del752-759): remaining binding read 100%.
For Tyrosine-protein kinase ABL1, phosphorylated (ABL1, Homo sapiens, UniProt P00519, Q252H): remaining binding read 100%.
It gave 52.2% for remaining binding (Tyrosine-protein kinase ABL1, non-phosphorylated (ABL1, Homo sapiens, UniProt P00519)).
For Ephrin type-A receptor 5 (EPHA5, Homo sapiens, UniProt P54756): remaining binding read 100%.
The remaining binding was 86.9% (Tyrosine-protein kinase Srms (SRMS, Homo sapiens, UniProt Q9H3Y6)).
The remaining binding was 37.6% (Serine/threonine-protein kinase Nek10 (NEK10, Homo sapiens, UniProt Q6ZWH5)).
It gave 40% for remaining binding (BDNF/NT-3 growth factors receptor (NTRK2, Homo sapiens, UniProt Q16620)).
For SRSF protein kinase 2 (SRPK2, Homo sapiens, UniProt P78362): remaining binding read 100%.
It gave 100% for remaining binding (Serine/threonine-protein kinase TAO1 (TAOK1, Homo sapiens, UniProt Q7L7X3)).
The remaining binding was 100% (Cyclin-dependent kinase-like 5 (CDKL5, Homo sapiens, UniProt O76039)).
It gave 100% for remaining binding (RAC-alpha serine/threonine-protein kinase (AKT1, Homo sapiens, UniProt P31749)).
The remaining binding was 56.2% (Tyrosine-protein kinase TXK (TXK, Homo sapiens, UniProt P42681)).
It gave 91.3% for remaining binding (Mast/stem cell growth factor receptor Kit (KIT, Homo sapiens, UniProt P10721, T670I/V559D)).

Block 2
Sequence: B1 (TRIM37 RING domain)
Method: yeast two-hybrid
Sample: yeast
Setting: mostly zero background
Baseline: not given
Reading: higher = stronger interaction
B1: TRIM37 RING domain (UniProt O94972); chain SVESIAEVFRCFICMEKLRDARLCPHCSKLCCFSCIRRWLTEQRAQCPHCRAPLQLRELVN
For UBE2E3 UBC core domain (UniProt Q969T4): “lacZ reporter activity” read 0.
UBE2S UBC core domain (UniProt Q16763) — “lacZ reporter activity”: 0.
UBE2J2 UBC core domain (UniProt Q8N2K1) — “lacZ reporter activity”: 0.
UBE2Q1 UBC core domain (UniProt Q7Z7E8) — “lacZ reporter activity”: 0.
For BIRC6 UBC core domain (UniProt Q9NR09): “lacZ reporter activity” read 0.
For UBE2L3 UBC core domain (UniProt P68036): “lacZ reporter activity” read 0.
UBE2B UBC core domain (UniProt P63146) — “lacZ reporter activity”: 0.
The “lacZ reporter activity” was 0 (UBE2O UBC core domain (UniProt Q9C0C9)).

Block 3
Target: Cyclin-dependent kinase 2, with cyclin A (CDK2, Homo sapiens, UniProt P24941)
Read-out: enzyme activity
Action: inhibitor
Concentration: 0.5 µM
Baseline: control
For `O=C(O)/C=C/c1cc(Br)c(Br)c(Br)c1Br`, the remaining activity was 85.6%.
With `CN1CCN(c2ccc3nc(-c4c(N)c5c(F)cccc5[nH]c4=O)[nH]c3c2)CC1` the remaining activity was 91%.
For `O=C(c1ccccc1)c1ccc(N2CCOCC2)cc1O`, the remaining activity was 99.3%.
With `O=C(c1cc2cc(O)ccc2[nH]1)c1cc2cc(O)ccc2[nH]1` the remaining activity was 61.5%.
The remaining activity of `O=Nc1c(-c2c(O)[nH]c3cc(Br)ccc23)[nH]c2ccccc12` is reported as 7.66%.
The remaining activity of `COc1ccc2c(c1)c(C1=C(c3c[nH]c4ccccc34)C(=O)NC1=O)cn2CCCN(C)C` is reported as 112%.
`O=c1cc(N2CCOCC2)oc2c(-c3ccccc3)cccc12` has a remaining activity of 106%.
The remaining activity of `O=C1c2ccccc2-c2nc3nnnn3nc21` is reported as 70.3%.
With `Nc1nc(Nc2ccc(S(N)(=O)=O)cc2)nn1C(=S)Nc1c(F)cccc1F` the remaining activity was 1.56%.
With `CN(C)S(=O)(=O)c1ccc2c(c1)/C(=C/c1cc3c([nH]1)CCCC3)C(=O)N2` the remaining activity was 90.6%.
For `Cc1ccc(S(=O)(=O)/C=C/C#N)cc1`, the remaining activity was 98%.
`O=C1Nc2ccc(Br)cc2/C1=C/c1cc2c([nH]1)CCCC2` gave a remaining activity of 90.8%.
`C[C@@H](N)[C@H]1CC[C@H](C(=O)Nc2ccncc2)CC1` has a remaining activity of 93.2%.
`NC(=O)c1cccc(-c2cc(Nc3ccc(OC(F)(F)F)cc3)ncn2)c1` gave a remaining activity of 96.5%.

Block 4
Target: RNA binding protein fox-1 homolog 2, RRM domain, GST-SBP tag (RBFOX2, Homo sapiens, UniProt O43251-10, residues 100-194)
Method: RNA Bind-n-Seq
Form: RNA
Sample: in vitro
Concentration: 365 nM
Setting: natural RNA segment, single round, ends assumed
Baseline: no-protein control
Reading: higher = stronger binding
Constant ends, left off below: GGGAGUUCUACAGUCCGACGAUC … UGGAAUUCUCGGGUGCCAA
Construct (chain): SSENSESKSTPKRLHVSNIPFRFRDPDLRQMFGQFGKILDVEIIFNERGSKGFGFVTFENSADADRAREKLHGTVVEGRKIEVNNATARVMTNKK
`CACACACACACCAUUUUAGGAAGUGGUUCUCCUACUGGAAAAUAUGCUACAGAAUGAAAGUUUGUAAUUGAAAGAAAAAGAAUGUAUUCAUCUGCUUCUUGGGUUUAAGC` — result for “RBNS enrichment (R)”: 0.665.
`GAGAUCCAUGGUGGGCAGGGCUGUUAGGUCACAGAGCUCUAGAAGCAGCUGGACUUGAACCCACAAUGGCUUGUGUAAAUUCGUAAAUUUCAUGGUUUCUAGGAAAAGCU`: “RBNS enrichment (R)” 0.522.
`GAUGUUAUUUGGCCAUCUCCUGGUUAUAUACAAAUGUGACCCGUGAUAAUGUGAUUGAACACUUUAGUAAUGCAAAAUAACUCAUUUCCAACUACUGCUGCAGCAUUUUG` — result for “RBNS enrichment (R)”: 0.357.
Under “RBNS enrichment (R)”, `CCCCAGACCUGCACUGCCUUUGAGCUGGGUCCUAAUUGCACAUGGCUUGUGACGAAUGAAUCUUGCAUUUUUUAGUGAUCGGAGAAGGGAUGGAUCAUAGGAUUCUGAUU` is recorded as 1.13.
Under “RBNS enrichment (R)”, `UUGGAAUCUGUGGUGAAAAAUAAUUUUCUGAUUUCCAAAUACAUUAAGAGCAUUAAAUGAAUAUUAAUCACCUUUAAAGUCUUUUAGAAAAGGACUUGUAUUGGUUUUUG` is recorded as 0.458.
`AGCAUAGAUUUGCAGUUACGGCCUGGAUGCCAGUCGCCAGCCCAGCUGUUCCCCUCGGGAACAUGAGGUGGUGGUGGCGCAGCAGACUGCGAUCAAUUCUGCAUGGUCAC` — result for “RBNS enrichment (R)”: 0.238.
Under “RBNS enrichment (R)”, `UUUGGAAGCAAAAGAUUAUUUUCUCUUAACAAGACUUUUUGUACUGAAAACAAUUUUUUUGAAUCUUUCUUAGCCUAAAAGACCCAUUUUCCUUGGAACAUGUAAGAACU` is recorded as 0.35.
For `UCUUAAUUUUUCUCCCUUCUUUCUUUUUUUGGCUUUGGGAAAAGCAUCAUUUUACCAAACAUACCGAGAACGAAAACUUCAAGGAUGAUGUUAGAAAAAAAUGUGAUUUA`, “RBNS enrichment (R)” read 0.749.
